Results collected from several papers.
Parts stem from different laboratories: compare values within a part only. Substitutions count along the parent as printed.

Series 1 — method: DHFR PCA, deep sequencing; medium: yeast; with: (+)-ABA 0.032 µM; baseline: wild-type fitted maximum; reading: higher = stronger binding
Target: ABI1, truncated, D143A, DHFR fusion (Arabidopsis thaliana)
Setting: methotrexate growth selection, single substitutions
Parent: PYL1, truncated, DHFR fusion (Arabidopsis thaliana); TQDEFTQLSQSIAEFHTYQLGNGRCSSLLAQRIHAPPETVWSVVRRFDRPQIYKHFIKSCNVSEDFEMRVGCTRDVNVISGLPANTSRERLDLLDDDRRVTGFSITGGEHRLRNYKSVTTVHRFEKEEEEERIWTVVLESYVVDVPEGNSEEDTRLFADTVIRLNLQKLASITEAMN; partner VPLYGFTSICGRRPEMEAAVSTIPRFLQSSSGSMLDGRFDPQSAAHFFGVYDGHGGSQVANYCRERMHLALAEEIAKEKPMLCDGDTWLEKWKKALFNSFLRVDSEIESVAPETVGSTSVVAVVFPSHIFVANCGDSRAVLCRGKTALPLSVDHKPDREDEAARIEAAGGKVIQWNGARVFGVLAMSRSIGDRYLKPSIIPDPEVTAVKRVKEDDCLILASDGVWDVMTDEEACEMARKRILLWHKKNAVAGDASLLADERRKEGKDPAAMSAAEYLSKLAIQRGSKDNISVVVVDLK
Change | relative binding score [%]
T119M | 4.89
V76A | 3.25
T86C | 27
W41A | -4.92
T160S | 4.89
T106A | -1.12
E128D | 50.7
Y115C | 6.9
D95A | 0.687
W134F | 23.4
R155K | 47.9
F66D | -1.22

Series 2 — target: CCND2, cyclin fold, Cln2 fusion (human); method: yeast growth competition, sequencing; medium: yeast; setting: weak parent motif; baseline: not given; reading: higher = stronger binding
Parent: CDKN1B docking peptide (human); PSACRNLFGPVDH
Change | normalised enrichment score
G9N | 0.296
H13F | 0.226
H13K | 0.191
C4E | 0.184
H13L | 0.099
P10R | 0.273
S2G | 0.204
G9M | 0.229
C4S | 0.179
N6R | 0.206
N6D | 0.0837
V11G | 0.303
L7I | 0.498

Series 3 — method: RNA Bind-n-Seq; molecule type: RNA; medium: in vitro; concentration: 200 nM; setting: whole 134-nt RNA, ends assumed; with: 150 mM KCl; baseline: input library; reading: higher = stronger binding
Target: Fragile X messenger ribonucleoprotein 1, C-terminal low-complexity region (Fmr1, Mus musculus, UniProt P35922)
Constant ends, left off below: GGGAGUUCUACAGUCCGACGAUC … UGGAAUUCUCGGGUGUCAAGG
Strand | log2 enrichment
AAGUCCUGUGCUACACAUCGUAUGUACCGAAUCGGGGCCCCGGCCCCGGGGCCCCGGAAAGUAUUAUGUUACGCCGUUCGGAUCUGCACU | -0.979
CACAGACAACACGCACCCACACAGACACAGAGGGAAGGGGUUGGGAUGAGGACAGGGUGCACAGCAGGGCGGGGUAGGACCCCAGCCCCU | 0.98
CUGUGCUACACAUCGUAUGUACCGAAUCGGGGAAAAAAAGGGAAAAAAAGGGAAAAAAAGGAAAGUAUUAUGUUACGCCGUUCGGAUCUG | -0.823
CCUGUGCUACACAUCGUAUGUACCGAAUCGGGGCCCCCCGGGGCCCCCCGGGGCCCCCCGGAAAGUAUUAUGUUACGCCGUUCGGAUCUG | -1.17
GCAGGAAGUAAAAACAAAUGGAAAUGCUUCGGAUAGUGGCAGGGGUGGGGGUUGCUAAGGAAAGGGUGGGAUGGGAGUGGGUAAAGACUU | 0.541
UGGGAGGUGGAUUUUGUUUACUUUUUUAGCUCAUUUCCAGGGGUGGGAAUUUUUUUUUAAUAUGUGUCAUGAAUAAAGUUGUUUUUGAAA | 0.415
AGUCCUGUGCUACACAUCGUAUGUACCGAAUCGGGGUUUGGGGAGGGGUUUUUGGGGAAAGUAUUAUGUUACGCCGUUCGGAUCUGCACU | 0.691
UAACUUUAGAGGAGGAUCUGGUGGAUAUGGCAGUGGACGUGGAUUUGGGGAUGGCUAUAAUGGGUAUGGAGGAGGACCUGGAGGUGGCAA | 0.375
CUCAAGUCCUGUGCUACACAUCGUAUGUACCGAAUCGGGGCCGGGGCCGGCCGGAAAGUAUUAUGUUACGCCGUUCGGAUCUGCACUUCC | -0.236

Series 4 — method: RNA Bind-n-Seq; molecule type: RNA; medium: in vitro; concentration: 365 nM; baseline: no-protein control; reading: higher = stronger binding
Target: RNA binding protein fox-1 homolog 2, RRM domain, GST-SBP tag (RBFOX2, Homo sapiens, UniProt O43251-10, residues 100-194)
Setting: natural RNA segment, single round, ends assumed
Constant ends, left off below: GGGAGUUCUACAGUCCGACGAUC … UGGAAUUCUCGGGUGCCAA
Residues (chain): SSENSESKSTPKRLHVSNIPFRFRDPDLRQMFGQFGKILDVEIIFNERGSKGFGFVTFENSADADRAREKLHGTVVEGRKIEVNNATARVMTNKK
Strand | RBNS enrichment (R)
CAUUGGUUAUAGUCAUGGGAAAGGAAGGUGUCCACGCAGGCACAAUUAACAAGAAAACAUAUGAACUCGCUUUAUACCUGAAGAGGUCUGUAACCAACCUUUAUCUGGCA | 0.393
AUAGUAGAUGUGAGAACUUGGGUUUGGUCCUCAGGUAACAGAGAGGGUGAAGGGGAGAGGAGGAGCUAGUAUUAGCCAAAGUGAUAGAAAACCUGAUUUUCAUCUCGUAC | 0.74
UUCAUAAUCGGGUAUUGCAUUUUGCCUUCCCUGUCCAUACCUCAAAUUGAUUGAUACCUCAGUUUAAUUCAGAGAGGUUCGCUAAGUGUUGGAUUCUAGUUGUGGUUUGA | 0.692
UUGUAUCGCUCACGAUGCACUGUGGUGUGCUCGGGUAUCUUUCCUCACUGGAGAGAGCAAGCACAGGAAGCUGGCUGCAGUGCCUUCCUCAUGAAGGAUCUACCACAACC | 0.26
AAAGUAGCCAAGAGCCUUUUGUUUUGUUUUUAUUUUGAUAAAUUAGUGGAGAAAUGGCAUUUUAAGAGGAGUCUCUUCUCAACUUACCUGAGAGUCGAAUUCUUCUCUUC | 0.442
UUUCUUGUGAUGGACGUGCACUACGAAGUGAGAUGGAGUCCUGCUCCGUGCAGGAGGCCCUUCAUUAUUGCUGCAGAAGACAGAAGCCUGGCUGAGUCACUCUCCACGUC | 0.316
AGUCCUGGUUCCCUUGCCCGCGUGGGACCCCAAUAGAACUCAGCCCUUCCAUGCCAGCCCUUCCUGCUGCCUCCCUCCUGUCUGGCUCCUGGGGCCCAUGCUUAGAGCCC | 1.04
AAACUAAAUGCGUUUUUAAGCAAUUUUUAAGACUUGUAAUUACCCUAAAAAUAAGGUUUAUUAAGCCAAGACCAGACUUUUGAGCAGGGCAGCACUGCCAGGCUGUCGUC | 0.324

For quick reference, copied from above (series 4):
Strand | RBNS enrichment (R)
AGUCCUGGUUCCCUUGCCCGCGUGGGACCCCAAUAGAACUCAGCCCUUCCAUGCCAGCCCUUCCUGCUGCCUCCCUCCUGUCUGGCUCCUGGGGCCCAUGCUUAGAGCCC | 1.04
AAACUAAAUGCGUUUUUAAGCAAUUUUUAAGACUUGUAAUUACCCUAAAAAUAAGGUUUAUUAAGCCAAGACCAGACUUUUGAGCAGGGCAGCACUGCCAGGCUGUCGUC | 0.324
AUAGUAGAUGUGAGAACUUGGGUUUGGUCCUCAGGUAACAGAGAGGGUGAAGGGGAGAGGAGGAGCUAGUAUUAGCCAAAGUGAUAGAAAACCUGAUUUUCAUCUCGUAC | 0.74
UUUCUUGUGAUGGACGUGCACUACGAAGUGAGAUGGAGUCCUGCUCCGUGCAGGAGGCCCUUCAUUAUUGCUGCAGAAGACAGAAGCCUGGCUGAGUCACUCUCCACGUC | 0.316
UUGUAUCGCUCACGAUGCACUGUGGUGUGCUCGGGUAUCUUUCCUCACUGGAGAGAGCAAGCACAGGAAGCUGGCUGCAGUGCCUUCCUCAUGAAGGAUCUACCACAACC | 0.26
